Experimental data pooled from the literature.
Lines come from different studies, so protocols differ. ± gives the spread as reported.
APP amyloid-beta peptide: Amyloid-beta precursor protein, amyloid-beta peptide (APP, Homo sapiens, UniProt P05067)
ESR1: Estrogen receptor (ESR1, Homo sapiens, UniProt P03372)
IDO1: Indoleamine 2,3-dioxygenase 1 (IDO1, Homo sapiens, UniProt P14902)
Moesin with CD44: Moesin, with CD44 (Homo sapiens, UniProt P26038)

Protein sequences, listed by entry. Tags and fused reporters are not part of them. Residues count along the entry.
UniProt P05067, whole entry, looked up: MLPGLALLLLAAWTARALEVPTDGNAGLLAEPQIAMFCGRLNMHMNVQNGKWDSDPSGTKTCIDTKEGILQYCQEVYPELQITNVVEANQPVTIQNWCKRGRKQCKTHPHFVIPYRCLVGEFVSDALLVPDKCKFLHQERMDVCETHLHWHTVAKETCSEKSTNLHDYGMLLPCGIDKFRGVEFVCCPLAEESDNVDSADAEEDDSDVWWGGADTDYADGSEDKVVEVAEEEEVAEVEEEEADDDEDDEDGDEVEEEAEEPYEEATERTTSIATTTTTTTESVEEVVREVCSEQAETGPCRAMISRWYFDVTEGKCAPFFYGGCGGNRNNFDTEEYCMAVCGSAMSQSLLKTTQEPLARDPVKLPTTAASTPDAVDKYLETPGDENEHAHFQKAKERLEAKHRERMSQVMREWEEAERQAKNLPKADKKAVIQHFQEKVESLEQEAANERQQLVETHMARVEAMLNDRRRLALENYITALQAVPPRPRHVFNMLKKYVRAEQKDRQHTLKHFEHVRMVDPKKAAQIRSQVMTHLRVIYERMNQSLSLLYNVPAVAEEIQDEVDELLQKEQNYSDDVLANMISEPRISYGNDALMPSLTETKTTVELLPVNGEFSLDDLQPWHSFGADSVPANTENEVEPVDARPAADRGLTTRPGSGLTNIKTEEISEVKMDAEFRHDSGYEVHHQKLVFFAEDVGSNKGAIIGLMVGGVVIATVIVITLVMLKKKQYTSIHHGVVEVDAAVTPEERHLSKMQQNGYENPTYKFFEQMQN
UniProt P05067, 672-713 limits assumed: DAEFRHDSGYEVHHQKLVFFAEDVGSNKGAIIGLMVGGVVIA
UniProt P03372, whole entry: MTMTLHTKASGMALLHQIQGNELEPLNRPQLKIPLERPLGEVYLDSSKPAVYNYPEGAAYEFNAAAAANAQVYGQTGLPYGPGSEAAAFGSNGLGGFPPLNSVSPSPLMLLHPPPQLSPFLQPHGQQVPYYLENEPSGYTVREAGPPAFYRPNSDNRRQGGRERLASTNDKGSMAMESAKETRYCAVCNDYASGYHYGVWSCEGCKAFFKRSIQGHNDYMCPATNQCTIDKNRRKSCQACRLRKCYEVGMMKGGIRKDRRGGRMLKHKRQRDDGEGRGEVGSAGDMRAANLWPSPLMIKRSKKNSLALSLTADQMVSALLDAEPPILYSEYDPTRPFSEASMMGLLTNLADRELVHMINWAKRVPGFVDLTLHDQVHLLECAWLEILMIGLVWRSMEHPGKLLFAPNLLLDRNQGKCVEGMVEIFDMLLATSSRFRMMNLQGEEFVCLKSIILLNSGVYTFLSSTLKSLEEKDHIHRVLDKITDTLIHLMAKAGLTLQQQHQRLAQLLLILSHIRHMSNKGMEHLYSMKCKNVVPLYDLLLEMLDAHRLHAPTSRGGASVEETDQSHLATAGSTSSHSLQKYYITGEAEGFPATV
UniProt P07949, 29-1114 limits assumed: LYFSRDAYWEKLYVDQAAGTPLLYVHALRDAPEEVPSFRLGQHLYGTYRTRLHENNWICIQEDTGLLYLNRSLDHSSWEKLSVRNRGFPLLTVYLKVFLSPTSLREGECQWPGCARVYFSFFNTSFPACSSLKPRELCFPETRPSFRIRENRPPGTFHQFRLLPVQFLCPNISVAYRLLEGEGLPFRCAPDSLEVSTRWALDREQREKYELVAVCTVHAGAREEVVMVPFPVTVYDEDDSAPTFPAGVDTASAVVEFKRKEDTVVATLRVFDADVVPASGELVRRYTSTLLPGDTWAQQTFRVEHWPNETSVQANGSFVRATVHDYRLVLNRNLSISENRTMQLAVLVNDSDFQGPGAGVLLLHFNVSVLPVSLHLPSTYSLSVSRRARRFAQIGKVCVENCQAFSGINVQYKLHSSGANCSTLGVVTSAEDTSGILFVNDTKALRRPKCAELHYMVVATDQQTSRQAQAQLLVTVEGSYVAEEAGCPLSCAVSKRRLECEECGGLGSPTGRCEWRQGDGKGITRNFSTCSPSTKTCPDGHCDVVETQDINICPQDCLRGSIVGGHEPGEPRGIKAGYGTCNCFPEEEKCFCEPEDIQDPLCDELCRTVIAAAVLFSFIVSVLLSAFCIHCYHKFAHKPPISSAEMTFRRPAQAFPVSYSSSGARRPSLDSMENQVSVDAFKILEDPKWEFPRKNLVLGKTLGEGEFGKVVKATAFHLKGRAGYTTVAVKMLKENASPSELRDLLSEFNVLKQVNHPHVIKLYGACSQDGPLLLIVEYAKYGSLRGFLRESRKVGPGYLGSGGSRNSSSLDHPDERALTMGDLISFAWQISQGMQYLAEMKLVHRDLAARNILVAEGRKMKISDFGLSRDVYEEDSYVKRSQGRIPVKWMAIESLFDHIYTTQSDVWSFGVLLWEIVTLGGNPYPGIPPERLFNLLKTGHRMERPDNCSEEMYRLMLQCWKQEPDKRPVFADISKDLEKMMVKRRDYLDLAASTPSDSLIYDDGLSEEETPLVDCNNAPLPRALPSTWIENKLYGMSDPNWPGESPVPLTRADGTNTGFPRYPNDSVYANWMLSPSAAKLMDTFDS
UniProt Q96RJ0, whole entry: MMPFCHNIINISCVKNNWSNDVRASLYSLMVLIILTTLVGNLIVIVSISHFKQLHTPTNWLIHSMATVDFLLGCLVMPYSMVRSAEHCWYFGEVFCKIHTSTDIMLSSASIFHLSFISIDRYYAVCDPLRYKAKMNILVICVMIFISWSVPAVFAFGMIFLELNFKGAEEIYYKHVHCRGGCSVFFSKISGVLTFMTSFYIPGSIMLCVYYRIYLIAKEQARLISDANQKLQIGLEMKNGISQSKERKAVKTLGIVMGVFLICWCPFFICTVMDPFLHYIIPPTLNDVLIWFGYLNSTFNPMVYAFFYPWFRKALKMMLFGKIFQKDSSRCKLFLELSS
UniProt P29466, whole entry, looked up: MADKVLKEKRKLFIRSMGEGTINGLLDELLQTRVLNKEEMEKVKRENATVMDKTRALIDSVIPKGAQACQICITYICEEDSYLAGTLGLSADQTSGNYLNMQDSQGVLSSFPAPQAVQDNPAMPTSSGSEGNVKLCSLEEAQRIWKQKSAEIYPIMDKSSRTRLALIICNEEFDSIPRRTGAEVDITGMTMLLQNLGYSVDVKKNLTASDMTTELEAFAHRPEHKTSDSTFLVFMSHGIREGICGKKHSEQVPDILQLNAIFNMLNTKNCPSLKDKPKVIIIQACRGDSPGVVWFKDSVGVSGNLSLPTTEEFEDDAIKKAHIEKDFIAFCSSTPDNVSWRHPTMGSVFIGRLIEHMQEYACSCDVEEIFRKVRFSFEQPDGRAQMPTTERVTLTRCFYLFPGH
UniProt P31749, whole entry: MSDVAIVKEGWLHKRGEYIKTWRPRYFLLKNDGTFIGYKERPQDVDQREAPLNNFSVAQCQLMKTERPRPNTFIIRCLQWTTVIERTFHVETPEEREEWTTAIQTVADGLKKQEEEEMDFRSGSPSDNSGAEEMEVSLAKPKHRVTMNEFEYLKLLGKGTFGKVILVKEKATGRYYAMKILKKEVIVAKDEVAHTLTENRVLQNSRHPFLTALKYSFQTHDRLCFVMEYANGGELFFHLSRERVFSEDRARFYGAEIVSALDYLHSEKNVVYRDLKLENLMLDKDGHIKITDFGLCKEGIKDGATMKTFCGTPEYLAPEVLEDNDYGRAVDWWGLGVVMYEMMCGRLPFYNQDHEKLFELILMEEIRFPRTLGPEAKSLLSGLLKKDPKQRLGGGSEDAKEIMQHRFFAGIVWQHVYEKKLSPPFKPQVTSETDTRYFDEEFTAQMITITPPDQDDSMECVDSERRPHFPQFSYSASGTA
UniProt Q13164, whole entry: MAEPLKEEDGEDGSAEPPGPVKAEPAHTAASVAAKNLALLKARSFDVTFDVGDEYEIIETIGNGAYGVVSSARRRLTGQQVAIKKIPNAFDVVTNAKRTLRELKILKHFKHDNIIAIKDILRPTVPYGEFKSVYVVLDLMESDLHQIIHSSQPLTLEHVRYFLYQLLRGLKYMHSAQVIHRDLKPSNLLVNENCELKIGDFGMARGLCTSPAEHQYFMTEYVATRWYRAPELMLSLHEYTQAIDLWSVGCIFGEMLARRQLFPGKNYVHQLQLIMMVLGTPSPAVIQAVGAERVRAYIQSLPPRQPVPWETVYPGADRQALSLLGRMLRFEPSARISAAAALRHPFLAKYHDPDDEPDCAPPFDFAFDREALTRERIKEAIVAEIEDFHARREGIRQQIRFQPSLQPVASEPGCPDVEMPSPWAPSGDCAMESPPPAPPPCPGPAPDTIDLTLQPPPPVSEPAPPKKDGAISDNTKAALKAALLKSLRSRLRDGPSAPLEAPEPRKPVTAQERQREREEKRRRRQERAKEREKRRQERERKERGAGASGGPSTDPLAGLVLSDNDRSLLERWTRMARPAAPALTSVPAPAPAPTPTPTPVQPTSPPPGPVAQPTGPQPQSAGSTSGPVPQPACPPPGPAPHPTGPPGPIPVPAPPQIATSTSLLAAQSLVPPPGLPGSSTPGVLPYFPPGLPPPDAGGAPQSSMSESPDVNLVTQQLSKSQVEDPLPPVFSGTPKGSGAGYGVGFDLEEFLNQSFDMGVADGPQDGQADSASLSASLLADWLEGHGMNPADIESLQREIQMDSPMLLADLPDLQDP
UniProt P25779, whole entry, looked up: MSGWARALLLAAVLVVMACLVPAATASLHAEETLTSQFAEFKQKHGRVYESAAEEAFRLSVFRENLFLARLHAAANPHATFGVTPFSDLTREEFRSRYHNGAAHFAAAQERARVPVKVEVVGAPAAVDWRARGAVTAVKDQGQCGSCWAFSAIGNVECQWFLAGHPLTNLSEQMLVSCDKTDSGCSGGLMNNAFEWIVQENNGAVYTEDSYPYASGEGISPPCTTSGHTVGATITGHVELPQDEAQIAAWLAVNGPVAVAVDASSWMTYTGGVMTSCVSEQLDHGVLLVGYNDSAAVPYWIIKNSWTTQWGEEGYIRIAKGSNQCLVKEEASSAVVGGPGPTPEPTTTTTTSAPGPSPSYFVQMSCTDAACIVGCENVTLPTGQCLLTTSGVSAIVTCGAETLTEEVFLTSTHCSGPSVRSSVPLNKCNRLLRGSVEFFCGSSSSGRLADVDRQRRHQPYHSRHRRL
UniProt Q9NV35, whole entry: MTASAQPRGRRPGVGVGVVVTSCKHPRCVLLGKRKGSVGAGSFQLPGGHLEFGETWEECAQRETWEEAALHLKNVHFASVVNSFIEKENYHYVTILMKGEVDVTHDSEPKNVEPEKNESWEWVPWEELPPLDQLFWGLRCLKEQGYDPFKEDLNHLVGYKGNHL
UniProt P24280, whole entry: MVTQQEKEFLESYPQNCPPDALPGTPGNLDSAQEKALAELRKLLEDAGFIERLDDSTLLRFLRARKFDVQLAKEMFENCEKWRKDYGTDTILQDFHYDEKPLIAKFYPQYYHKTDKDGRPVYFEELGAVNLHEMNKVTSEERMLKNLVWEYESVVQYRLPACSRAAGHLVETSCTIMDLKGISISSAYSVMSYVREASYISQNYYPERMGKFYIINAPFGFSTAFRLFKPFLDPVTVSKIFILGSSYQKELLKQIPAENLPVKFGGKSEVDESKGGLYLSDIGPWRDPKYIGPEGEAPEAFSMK
UniProt F7BWZ9, 18-604 limits assumed: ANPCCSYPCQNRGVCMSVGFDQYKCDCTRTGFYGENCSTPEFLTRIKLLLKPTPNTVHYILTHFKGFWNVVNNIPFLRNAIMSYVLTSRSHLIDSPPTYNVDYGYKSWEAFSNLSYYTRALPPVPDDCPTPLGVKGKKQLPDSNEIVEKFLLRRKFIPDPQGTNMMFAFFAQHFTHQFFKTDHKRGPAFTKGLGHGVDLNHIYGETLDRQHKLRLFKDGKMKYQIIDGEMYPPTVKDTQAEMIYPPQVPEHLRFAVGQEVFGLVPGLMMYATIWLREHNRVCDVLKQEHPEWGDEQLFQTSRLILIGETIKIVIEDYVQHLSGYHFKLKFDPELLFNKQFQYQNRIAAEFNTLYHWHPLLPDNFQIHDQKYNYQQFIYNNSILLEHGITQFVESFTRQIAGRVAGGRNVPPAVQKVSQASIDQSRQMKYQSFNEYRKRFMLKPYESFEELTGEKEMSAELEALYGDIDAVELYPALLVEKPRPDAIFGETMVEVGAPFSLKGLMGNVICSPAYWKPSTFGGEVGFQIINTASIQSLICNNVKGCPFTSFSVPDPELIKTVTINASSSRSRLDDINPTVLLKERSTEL
UniProt A4HTR0, 1-443: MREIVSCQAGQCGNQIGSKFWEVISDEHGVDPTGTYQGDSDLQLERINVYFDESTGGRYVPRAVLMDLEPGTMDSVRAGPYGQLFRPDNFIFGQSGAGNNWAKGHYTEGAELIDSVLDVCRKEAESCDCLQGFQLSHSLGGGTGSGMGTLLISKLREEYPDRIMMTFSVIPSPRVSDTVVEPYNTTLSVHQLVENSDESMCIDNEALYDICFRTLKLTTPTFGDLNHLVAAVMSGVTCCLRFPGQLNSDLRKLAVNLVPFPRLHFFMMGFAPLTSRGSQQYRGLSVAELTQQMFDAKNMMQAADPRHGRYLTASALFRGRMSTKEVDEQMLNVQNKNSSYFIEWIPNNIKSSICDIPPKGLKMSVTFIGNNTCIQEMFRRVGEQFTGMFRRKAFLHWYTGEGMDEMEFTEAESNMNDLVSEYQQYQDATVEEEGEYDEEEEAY

| SMILES | target | test | test system | conditions | IC50 |
| --- | --- | --- | --- | --- | --- |
| COC(=O)/C(=C/c1c[nH]c2ccc(OC)cc12)c1ccc(F)cc1 | APP amyloid-beta peptide | Aβ42 oligomerisation, ELISA |  |  | > 20 µM |
| Cn1nc(-c2ccccc2)cc1NC(=O)Nc1ccc(OC(F)(F)F)cc1 | ALK (Homo sapiens, UniProt Q9UM73) | ELISA |  |  | 58 µM |
| Cn1nc(-c2ccc(CC(=O)Nc3cc(C(C)(C)C)on3)cc2)c2c(N)ncnc21 | RET (Homo sapiens, UniProt P07949) | inhibitor |  |  | 0.00057 ± 5e-05 µM |
| CC(C)NC(=O)CSc1nc2ccc(NC(=O)CSc3cccc(C(F)(F)F)c3)cc2s1 | ESR1 | reporter gene, antagonist | HEC-1 transfected ERα luciferase reporter |  | > 50 µM |
| Cc1cccc(NC(=O)CSc2nc(-c3ccc(F)cc3)cc(C(F)(F)F)c2C#N)c1 | TAAR1 (Homo sapiens, UniProt Q96RJ0) |  |  |  | > 10 µM |
| CCOc1ccc2cc(-c3nn(CC4CCNCC4)c4ncnc(N)c34)ccc2n1 | ABL1 (Homo sapiens, UniProt P00519) | kinase activity, inhibitor, radiometric |  | highest tested 10 µM | > 10 µM |
| CC(C)[C@H](N)c1nc2cc(-c3cnoc3)sc2c(=O)[nH]1 | CDC7 (Homo sapiens, UniProt O00311) | enzyme activity, inhibitor |  |  | > 10 µM |
| O=C(CCl)N1CCN(c2cc(N3CCCC3)nc(N3CCCC3)n2)CC1 | Caspase-1 (CASP1, Homo sapiens, UniProt P29466) | inhibitor |  | 45 min preincubation | 0.22 ± 0.12 µM |
| Fc1cnccc1-c1ccc(C2(c3ccc(Cl)cc3)CCNCC2)cc1 | AKT1 (Homo sapiens, UniProt P31749) | kinase activity, inhibitor, radiometric HotSpot |  | with: ATP 10 µM | 0.08 µM |
| COC(=O)/C(=C/c1c[nH]c2ccc(C#N)cc12)c1ccc(NS(C)(=O)=O)cc1 | IDO1 | enzyme activity, inhibitor |  |  | 11.5 µM |
| CC(=NNC(N)=NO)c1ccc(NC(=O)c2cc3cccc([N+](=O)[O-])c3[nH]2)cc1 | CHEK2 (Homo sapiens, UniProt O96017) | kinase activity, inhibitor, IMAP fluorescence polarisation |  | 60 min | 7e-05 ± 3e-05 µM |
| O=C(CCCCCn1c(=S)[nH]c2ccccc2c1=O)N1CCN(c2cccc(C(F)(F)F)c2)CC1 | ESR1 | reporter gene, coactivator binding inhibitor, luciferase reporter | HEC-1 cells transfected with ERα | partial inhibition, with: estradiol 1 nM | 25 µM |
| COc1cc2nccc(Oc3ccc(NC(=S)NC4CCC4)c(Cl)c3)c2cc1C(N)=O | KDR (Homo sapiens, UniProt P35968) |  |  |  | 0.0205 µM |
| O=C(c1ccc(O)c(Br)c1)N1Cc2ccccc2C1 | HSP90AA1 (Homo sapiens, UniProt P07900) | binding, fluorescence polarization |  | with: FITC-geldanamycin tracer | 2.73 ± 0.19 µM |
| COc1cccc(C(=O)Nc2ccc(-c3nc4ccc(NC(=O)c5cccc(OC)c5)cc4s3)cc2)c1 | Moesin with CD44 | MSN-CD44 interaction, inhibitor, TR-FRET |  | with: CD44 | > 100 µM |
| COc1cc(C(=O)N2CCC(N3CCN(C)CC3)CC2)ccc1Nc1ncc2c(n1)N(C1CCC1)c1ccccc1C(=O)N2C | MAPK7 (Homo sapiens, UniProt Q13164) | kinase activity |  |  | 0.075 ± 0.009 µM |
| COC(=O)C[C@@H]1N=C(c2ccc(Cl)cc2)c2c(sc(C(=O)NCCOCCNC(C)=O)c2C)-n2c(C)nnc21 | Bromodomain-containing protein 4, BD1 (BRD4, Homo sapiens, UniProt O60885) | binding, competitor, AlphaScreen |  | with: 20 nM His-BRD4 | 0.115 µM |
| Cc1ccc(NC(=O)COC(=O)C(CC(C)C)N2C(=O)C3CC=CCC3C2=O)c(C)c1 (centres unmarked) | Cruzipain (Trypanosoma cruzi, UniProt P25779) | enzyme activity, inhibitor, fluorogenic substrate cleavage |  | 0.01% Triton X-100, with: Z-FR-AMC | 25 µM |
| O=C(OC(C(F)(F)F)C(F)(F)F)N1Cc2ccc(OCC(F)F)cc2C1 | ABHD6 (Homo sapiens, UniProt Q9BV23) | inhibitor, fluorescence |  |  | 0.006 ± 0.0003 µM |
| COc1ccc2nc3ccccc3c(SCCCN)c2c1 | HASPIN (Homo sapiens, UniProt Q8TF76) | inhibitor, TR-FRET |  | with: histone H3 peptide | 0.017 µM |
| O=C(NCc1ccc(Cl)cc1)[C@@H]1C[C@@H](O)CN1C(=O)c1ccncc1 | von Hippel-Lindau disease tumor suppressor, with elongin B, C (VHL, Homo sapiens, UniProt P40337) | binding, fluorescence polarization |  | 10% DMSO, with: FAM-HIF1α peptide tracer | 32 ± 1 µM |
| COc1cc2c(SCCCN)c3ccccc3nc2cc1Cl | DYRK2 (Homo sapiens, UniProt Q92630) | inhibitor |  | with: Woodtide peptide | 9.4 µM |

| SMILES | target | test | test system | conditions | IC50 |
| --- | --- | --- | --- | --- | --- |
| COc1cc(Nc2ccnc3ccc(I)cc23)cc(OC)c1OC | PKN3 (Homo sapiens, UniProt Q6P5Z2) | target engagement, NanoBRET | HEK293 |  | > 10 µM |
| O=c1[nH]c2ccc(S(=O)(=O)N3CCN(C4CCCCC4)CC3)cc2o1 | NUDT15 (Homo sapiens, UniProt Q9NV35) | enzyme activity, inhibitor, malachite green |  | with: dGTP | 9.1 µM |
| COc1ccc2[nH]cc(CCc3ccccc3)c2c1 | IDO1 | enzyme activity, inhibitor |  |  | 5.4 µM |
| COc1cc2c(Nc3c(Cl)ccc4c3OCO4)ncnc2cc1OCCCN1CCN(C(=O)CCCC(=O)NCc2ccc(COc3nc(N)nc4[nH]cnc34)cc2)CC1 | Proto-oncogene tyrosine-protein kinase Src, SH3-SH2-kinase domains (SRC, Gallus gallus, UniProt P00523) | enzyme activity, inhibitor |  | unphosphorylated form, enzyme 10 nM | 0.19 ± 0.02 µM |
| CCCCCCCCCCCCNC(=S)NCCCC[C@H](NS(=O)(=O)c1ccccc1)C(=O)N[C@H](C)C(=O)N[C@@H](CCCNC(=N)N)C(N)=O | SIRT2 (Homo sapiens, UniProt Q8IXJ6) | demyristoylation, inhibitor |  | NAD+ 500 µM, with: myristoylated peptide 50 µM | 6.6 ± 0.6 µM |
| CN1CC[C@H](c2c(O)cc(O)c3c(=O)cc(-c4ccccc4F)oc23)[C@H](O)C1 | GSK3B (Homo sapiens, UniProt P49841) |  |  | ATP at Km | > 1 µM |
| O=[N+]([O-])c1cc(CN2CCN(c3ccc(Cl)cc3)CC2)ccc1Cl | SEC14 (Saccharomyces cerevisiae, UniProt P24280) | phosphatidylinositol transfer, inhibitor |  | Sec14 287 nM, with: [3H]-phosphatidylinositol | 31 ± 10.3 µM |
| NCCOCCOCCNC(=O)[C@@H]1CCCCNC(=O)[C@H](Cc2ccc([N+](=O)[O-])cc2)NC(=O)[C@H](CC2CCCCC2)NC(=O)C[C@H](O)[C@H](CC2CCCCC2)NC(=O)/C=C\C(=O)N1 | MAPKAPK2 (Homo sapiens, UniProt P49137) | inhibitor, Z'-LYTE |  |  | 6.8 µM |
| CC(C)OC(=O)CCC(C(=O)/C=C/c1ccc(O)c(OC(F)(F)F)c1)C(=O)/C=C/c1ccc(O)c(OC(F)(F)F)c1 | Amyloid-beta precursor protein, Aβ aggregates (APP, Homo sapiens, UniProt P05067) | binding, thioflavin T competition |  |  | 0.39 µM |
| COc1ccc(-c2nc(C(F)(F)F)nn2-c2ccc(OC)nc2)cc1 | Prostaglandin G/H synthase 2 (Macaca mulatta, UniProt F7BWZ9) | PGE2 production, inhibitor, enzyme immunoassay | monkey whole blood |  | 0.125 ± 0.034 µM |
| OC[C@H]1[C@@H](O)[C@H](O)[C@@H](O)CN1CCCCCOCCc1ccsc1 | Beta-glucosidase (GBA2, Homo sapiens, UniProt Q9HCG7) | inhibitor, 4-methylumbelliferyl glucoside | HEK293T overexpressing GBA2 homogenate |  | 0.001 µM |
| CCS(=O)(=O)N(C)C(CCC(=O)O)C(=O)O (centres unmarked) | FOLH1 (Homo sapiens, UniProt Q04609) | enzyme activity, inhibitor, HPLC |  | 15 min, pH 7.4, 37 °C, 1% Triton X-100, with: 10 mM glutamate dipeptide substrate | > 100 µM |
| COCCN1C(=O)C(C)(C)c2cc(-c3csc(NC(=O)c4cc(OC)cc(OC)c4)n3)ccc21 | Scavenger receptor class B member 1 (Mus musculus, UniProt Q61009) | DiI-HDL uptake, inhibitor | mouse cells | with: DiI-HDL | 0.09 µM |
| COc1cc([C@@H]2c3cc4c(cc3[C@@H](CC(C)(C)O)[C@H]3COC(=O)[C@H]23)OCO4)cc(OC)c1OC | Tubulin alpha/beta heterodimer (Leishmania infantum, UniProt A0A381MCS3+A4HTR0) | tubulin polymerization, inhibitor |  | 37 °C, with: tubulin 1.2 mg/mL | 6.9 ± 0.5 µM |
| COc1ccc2[nH]cc(/C=C/c3cccnc3)c2c1 | APP amyloid-beta peptide | Aβ42 oligomerisation, ELISA |  |  | > 20 µM |
| CCc1ccc(SCC(=O)Nc2ccc3nc(SCC(=O)NC4CC4)sc3c2)cc1 | ESR1 | reporter gene, antagonist | HEC-1 transfected ERα luciferase reporter |  | 20 to 50 µM |
| COc1cccc(C(=O)Nc2ccc(-c3nc4ccccc4s3)cc2)c1 | Tyrosine-protein kinase SYK, with FCER1G (SYK, Homo sapiens, UniProt P43405) | protein binding, inhibitor, TR-FRET |  |  | > 100 µM |
| O=C(O)CNC(=O)c1cc(C(=O)O)cc([C@H]2CCN[C@@H]2C(=O)O)c1 | Glutamate receptor ionotropic, NMDA 2B, with GluN1 (Grin2b, Rattus norvegicus, UniProt Q00960) | ion current, antagonist, two-electrode voltage clamp | Xenopus oocytes | GluN1/GluN2B, with: glycine 100 µM and glutamate 1 µM | 5.76 ± 0.22 µM |
| O=C(NO)c1c(F)c(F)cc(F)c1F | HDAC6 (Homo sapiens, UniProt Q9UBN7) | enzyme activity, inhibitor, electrophoretic mobility shift |  | with: FAM-RHKK(Ac)-NH2 1 µM | 6.77 µM |
| COc1cc(O)ccc1CCC(=O)c1ccc(O)cc1 | ALOX5 (Homo sapiens, UniProt P09917) | enzyme activity | cell-free |  | 8.9 µM |
| O=C(Nc1cccc(-c2nc3ccccc3s2)c1)c1ccc([N+](=O)[O-])cc1 | Moesin with CD44 | MSN-CD44 interaction, inhibitor, TR-FRET |  | with: CD44 | > 100 µM |
| COc1cc2c(cc1OC)C(=O)/C(=C/c1ccccc1OC(=O)N(c1ccccc1)c1ccccc1)C2 | Cocaine esterase (CES2, Homo sapiens, UniProt O00748) | inhibitor |  | 33 min preincubation, with: fluorescein diacetate | 0.306 ± 0.0267 µM |
